Results from different studies.
Numbered parts are unrelated; each lists some results of a single study.

Sample 1
Target: Prothrombin, mature alpha-thrombin (F2, Homo sapiens, UniProt P00734)
Method: aptamer microarray, sandwich
Molecule type: DNA with 2'F-ANA
Medium: in vitro
Concentration: 200 nM
Notes: whole 15-mer aptamer, many near background
With: Cy3 exosite-II aptamer, 400 nM
Reading: higher = stronger binding
Measurement: mean fluorescence intensity
Strand: GGTTGGTGTGGTTGG
Modification = 2'F-ANA at 3 4 6 7 8 9 10 11 15; value = 215 a.u.
Modification = 2'F-ANA at 2 3 4 6 8 9 10 11 12 14; value = 166 a.u.
Modification = 2'F-ANA at 1 3 4 10; value = 69.1 a.u.
Modification = 2'F-ANA at 2 4 5 6 7 9 10 12 14 15; value = 48.3 a.u.
Modification = 2'F-ANA at 1 4 5 6 9 12 15; value = 104 a.u.
Modification = 2'F-ANA at 3 4 5 6 11 15; value = 74.2 a.u.
Modification = 2'F-ANA at 4 5 7 9 12 14; value = 46.6 a.u.
Modification = 2'F-ANA at 3 4 9 10 15; value = 307 a.u.
Modification = 2'F-ANA at 2 3 6 7 8 9 11 12 14; value = 335 a.u.
Modification = 2'F-ANA at 2 3 5 6 8 9 10 14; value = 49.5 a.u.
Modification = 2'F-ANA at 2 4 6 7 8 12 14; value = 155 a.u.
Modification = 2'F-ANA at 3 5 6 9 10 11 13 15; value = 55.4 a.u.
Modification = 2'F-ANA at 3 4 6 7 10 11 12 13 15; value = 207 a.u.
Modification = 2'F-ANA at 4 6 8 9 13 14 15; value = 72.9 a.u.
Modification = 2'F-ANA at 1 3 8 11 12 13; value = 462 a.u.
Modification = 2'F-ANA at 2 4 5 6 9 10 11 13; value = 46.1 a.u.
Modification = 2'F-ANA at 1 3 4 8 10 11 14; value = 53.3 a.u.
Modification = 2'F-ANA at 3 4 5 6 7 8 10 11 14; value = 47.8 a.u.
Modification = 2'F-ANA at 1 2 4 6 8 10 12 13; value = 78.1 a.u.
Modification = 2'F-ANA at 1 2 4 6 7 9 10 13 15; value = 53.9 a.u.
Modification = 2'F-ANA at 2 4 6 9 11; value = 202 a.u.
Modification = 2'F-ANA at 1 2 3 4 5 11 12 13 14; value = 47 a.u.

Sample 2
Target: Centromere-binding protein 1, full length, N-terminal tag (CBF1, Saccharomyces cerevisiae, UniProt P17106, residues 1-351)
Chain of UniProt P17106 (whole entry, looked up): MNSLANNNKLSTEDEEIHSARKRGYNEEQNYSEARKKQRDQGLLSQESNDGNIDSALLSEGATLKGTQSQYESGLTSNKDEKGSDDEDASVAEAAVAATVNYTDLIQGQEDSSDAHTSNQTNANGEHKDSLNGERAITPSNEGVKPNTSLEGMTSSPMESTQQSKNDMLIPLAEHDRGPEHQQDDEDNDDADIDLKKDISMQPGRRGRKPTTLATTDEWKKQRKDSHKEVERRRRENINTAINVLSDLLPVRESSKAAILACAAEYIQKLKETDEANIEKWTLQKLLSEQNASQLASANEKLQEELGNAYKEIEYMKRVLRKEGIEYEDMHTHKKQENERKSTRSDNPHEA
Method: protein-binding microarray
Molecule type: double-stranded DNA, one strand shown
Medium: in vitro
Concentration: 0.8 µM
Notes: whole 60-bp probe, no competitor
Reading: higher = stronger binding
Measurement: fluorescence intensity
All sequences stand within: … GTCTTGATTCGCTTGACGCTGCTG
Strand = GAAAGTCAATTGATTAACGTGCTAATGTAGATTTAG; value = 560 a.u.
Strand = CTAAGGATTGACAGTGATGTAATAATGAACGAGTTC; value = 497 a.u.
Strand = CTAGGGCAAGTAAGTCACGTACTTTTTTTTTTTTTC; value = 1040 a.u.
Strand = GAAGAAGTAATCATTATCGTGGTGCACCAGCAGTAG; value = 490 a.u.
Strand = CTAGAGGAGAAACTGAACGTGAACTGTGAAAAGTTC; value = 811 a.u.
Strand = GAACCTATTATGAGCGTCACGATGGGACTTTAATAG; value = 659 a.u.
Strand = CTAGTGGGTAAATGTCTCGTGCATTAAGACAGGTTC; value = 729 a.u.
Strand = CCTAACTACTATATACGCGTGGTATAGCTTCGTACA; value = 557 a.u.
Strand = TGTACGAAGCTATAGCACGTTGATATAGTAGTTAGG; value = 632 a.u.
Strand = GAATACATCGACAAACATGTGCAACAGCTCTAATAG; value = 625 a.u.
Strand = CCTAACTACTATATTCATGTGGTATAGCTTCGTACA; value = 578 a.u.
Strand = GAACTGGAAATCCAAAACGTGATCGTGAGCCACTAG; value = 1830 a.u.
Strand = GAACGTAGGATAGGTTACATGATCATTGCAATATAG; value = 545 a.u.
Strand = GAACTTTGCTTTGCGGGTGAGAGGAAAAAAAAGTAG; value = 594 a.u.
Strand = GAACATATACAGTGTAACGTGGGGACATTAATTTAG; value = 600 a.u.
Strand = GAATGTGCTCGTATTCTGGTGGTCATTAGACACTAG; value = 589 a.u.
Strand = GAAATAATAAGCACGCACGAGATGTCCTCCGATTAG; value = 853 a.u.
Strand = GAACGCAACTGCAACCACATGCAAATGCTGGCATAG; value = 612 a.u.
Strand = CTAGAGATAAAAATAAACGTGGTGGCTCCCGAGTTC; value = 550 a.u.
Strand = CTAAGCGTCAATGCGCACGTAATGGCTTCGAAGTTC; value = 494 a.u.
Strand = GAAACAGGAGTTCTGCATGTGCGTAATTCGAAGTAG; value = 634 a.u.
Strand = CTAAGAAAAATGGCTGATGTAGTTGAAAAAGGTTTC; value = 517 a.u.
Strand = GAAAGCAAATTCACACACGTTGTAGACGGCTGTTAG; value = 527 a.u.
Strand = CTATGAGAACGTTATCACGCGGATTATTTAGTTTTC; value = 907 a.u.
Strand = CTATGTACAACATTCCACATGACGTAGGAATTGTTC; value = 999 a.u.

Sample 3
Target: Ras GTPase-activating protein-binding protein 1, full length (G3BP1, Homo sapiens, UniProt Q13283)
Chain of UniProt Q13283 (whole entry, looked up): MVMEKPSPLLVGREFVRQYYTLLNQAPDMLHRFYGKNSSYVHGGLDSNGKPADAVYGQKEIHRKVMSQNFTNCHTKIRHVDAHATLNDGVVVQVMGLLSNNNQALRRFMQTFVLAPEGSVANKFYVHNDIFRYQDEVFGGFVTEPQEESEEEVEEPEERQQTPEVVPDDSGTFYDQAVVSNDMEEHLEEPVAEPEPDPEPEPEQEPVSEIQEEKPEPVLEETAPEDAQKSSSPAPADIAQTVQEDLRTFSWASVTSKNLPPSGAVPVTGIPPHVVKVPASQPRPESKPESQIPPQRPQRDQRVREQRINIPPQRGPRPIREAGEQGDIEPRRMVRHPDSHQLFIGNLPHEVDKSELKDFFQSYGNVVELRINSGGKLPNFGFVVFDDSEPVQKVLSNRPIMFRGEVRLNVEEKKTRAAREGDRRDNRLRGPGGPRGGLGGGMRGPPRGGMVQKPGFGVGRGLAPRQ
Method: RNA Bind-n-Seq
Molecule type: RNA
Medium: in vitro
Concentration: 200 nM
Notes: whole 134-nt RNA, ends assumed
With: 150 mM KCl
Reference: input library
Reading: higher = stronger binding
Measurement: log2 enrichment
All sequences stand within: GGGAGUUCUACAGUCCGACGAUC … UGGAAUUCUCGGGUGUCAAGG
Strand = CAAGUCCUGUGCUACACAUCGUAUGUACCGAAUCGGGUUUGGGAAAAAGGGAGGGAAAGUAUUAUGUUACGCCGUUCGGAUCUGCACUUC; value = 1.02
Strand = CAAGUCCUGUGCUACACAUCGUAUGUACCGAAUCGGGGUUUGGUUUGGGUUUGGGAAAGUAUUAUGUUACGCCGUUCGGAUCUGCACUUC; value = -0.284
Strand = CCUGUGCUACACAUCGUAUGUACCGAAUCAAAUUUUUAAACCCCCCCAAACCCCCCCAAAAAAGUAUUAUGUUACGCCGUUCGGAUCUGC; value = 0.0669
Strand = UUCUUGCCUAUGCUGUGCGCCACACCAUCCAGGUGUACCGGCUCUCCAAGUACAACACGGAAGAAUUCAUCACAGUCUACCCCACCGACC; value = 0.522
Strand = CCUGUGCUACACAUCGUAUGUACCGAAUCAAAUUUUUUUAAACCCCCAAAUUUUUUUAAAAAAGUAUUAUGUUACGCCGUUCGGAUCUGC; value = -0.125
Strand = UCCUGUGCUACACAUCGUAUGUACCGAAUCGGGCCCCCCGGGGCCCCCCGGGCCCCCCGGAAAGUAUUAUGUUACGCCGUUCGGAUCUGC; value = -0.142
Strand = AGUAGCUAUGGUCAACAAAGCAGCUAUGGGCAGCAGCCUCCCACUAGUUACCCACCCCAAACUGGAUCCUACAGCCAAGCUCCAAGUCAA; value = 1.07
Strand = AGUCCUGUGCUACACAUCGUAUGUACCGAAUCGGAAAAAAAGGUUUUUUUGGAAAGGAAAGUAUUAUGUUACGCCGUUCGGAUCUGCACU; value = -2.02
Strand = CCUCAAGUCCUGUGCUACACAUCGUAUGUACCGAAUCGGAGGGAGGGAGGGGAAAGUAUUAUGUUACGCCGUUCGGAUCUGCACUUCCAG; value = 1.12
Strand = UGGGAGGUGGAUUUUGUUUAUUUUUUUAGCUCAUUUCCAGGGGUGGGAAUUUUUUUUUAAUAAGUGUCAUGAAUAAAGUUGUUUUUGAAA; value = 0.0885
Strand = AGUCCUGUGCUACACAUCGUAUGUACCGAAUCGGGAAAAGGGGAAAAGGGAAAAGGGAAAGUAUUAUGUUACGCCGUUCGGAUCUGCACU; value = 0.0418
Strand = UUCACUCUUUGAAGGAACGUGGUACUUAGUUAGGGUGGAUGAAAAGCACAGAAGAACUUACGCUCGGCGUCCCACUCCAAAUGAUGACAC; value = 0.51
Strand = UGGCCCUGGUGGCAUGCGGGGAGGAAGAGGUGGCCUCAUGGAUCGUGGUGGUCCCGGUGGAUUGUUCAGAGGUGGCCGUGGUGGAGACAG; value = 0.445
Strand = CCUGUGCUACACAUCGUAUGUACCGAAUCGGGGUUUUUGGGGUUUGGGGUUUUUUUGGGGAAAGUAUUAUGUUACGCCGUUCGGAUCUGC; value = 0.242

Sample 4
Target: RNA binding protein fox-1 homolog 2, RRM domain, GST-SBP tag (RBFOX2, Homo sapiens, UniProt O43251-10, residues 100-194)
Method: RNA Bind-n-Seq
Molecule type: RNA
Medium: in vitro
Concentration: 365 nM
Notes: natural RNA segment, single round, ends assumed
Reference: no-protein control
Reading: higher = stronger binding
Measurement: RBNS enrichment (R)
All sequences stand within: GGGAGUUCUACAGUCCGACGAUC … UGGAAUUCUCGGGUGCCAA
Construct (chain): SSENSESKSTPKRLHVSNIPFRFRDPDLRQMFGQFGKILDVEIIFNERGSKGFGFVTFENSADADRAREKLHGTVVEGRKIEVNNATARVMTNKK
Strand = UAGACCCCUGGAUGUGACUCUUCUUUUUAAAAGGAAACUAUGUGGAGGACGAUGCAAAAACAUAUUUAUCUUAGUUUGCUCUGCUGUAGUUCUGUUAUUUAUACUUGGUG; value = 0.722
Strand = CACACACACACGUUUGCAGGGGUGUCUCGGUUUGCAUUUCUGUUGGAAUGAUCCGAACUGGACUCACAUCCUGUAUGGUGGAUGGACUGUAUAUUGAGGGUUCCAUUCUU; value = 0.317
Strand = UGAGCAUGUUUGUUUUGUCUGCUUUCUAUACAGAGCUCAGAUUUGUCUAAUGAUUUAAAUGUAACCCAAGACUUUAAGUGUGGGUUACUUAAUGUGUUCCUGAAGAGGUU; value = 3.36
Strand = AAAAAAUUCGUGAUUCCUUGAGUGUCCACACGUUUUGUCUUUGGGGGUUAAGGGUUGGGAUUUUGGGUUUGUUGUUAAUUUUGUUGUUUUAAAGGUAAAUUGCACUUUUA; value = 1.39
Strand = ACAUGAGUUACUUUUAUAAAUCGAUGACCCCCCACCCCCACCCUCACGUCUUACUCUGAGGUGUGUGACAUCUUUAGUGUGUGAGAUUUGGAUUCCUAACCUUAAGUGAG; value = 0.311
Strand = UCCAAGUCCGUCUACUACAGAGUCUAUUAUACUAGUAGAGCUGCUGUUCCAGGGUCGGGAGUCUAGGGUUGAGCACAACAUGACGUUUAAUUUCCUUUGACUUUUGUGGC; value = 0.285
Strand = CGUGUAUAAACGUUUUCAGGGAAUGCAGAAGGUAUUAAUGAAGAGACAAAACCUUUAUUCCAUGUGCUUUGCUUCAUUCUGUACAUAGCUCUUUGGCUCGUGAACCUAAU; value = 0.367
Strand = ACUCUGGAGCCUCCGUCUCUUCGAUUAUAAAGACACCCGUCCUUAAGACAGCCGCUCCUUGGACACUCGGCUGGAAGUCUUUAGUGUGUUCCUCCAUACUACUGAAGCCC; value = 0.495
Strand = GUUCUUCACCUCUAUCCAAAGGACUUGAUUUGCAUGGUAUUGGAUAAAUCAUUUCAGUAUCCUCUCCAUCACAUGCCUGGCCCUUGCUCCCUUCAGCGCUAGACCAUCAA; value = 1.6
Strand = CCAGAUCCAUGGCAAUGGUCUCCCCACAGACCGCAGGACUGAGCCUGGAGAGAGAAGUUGCUUGACGGAUGCCACUUGUCAGGACAGUAUGUGAGUGUCUGGAGACAGCA; value = 3
Strand = CCUCCUCCCUCGCCUCCAGUGGAGGCUGAGCUGACCCUGGGCUGCUGGAGGCCAGACUGGGCUGUAGUUAGCUUUUCAUCCCUAAAGAAGGCUCCUUUCCCUAAGGAACC; value = 0.264
Strand = CAGGCUCAAAGGAGAUAUGUAUAAGAAAGUGGUUUGUAAAUUAUGUUCCAUUUCAUAAAUAGACACUAUUCACAAACUAAAAUCUAAUAAAAAACCACAGUUGUAAUUUA; value = 0.471

A few entries again (sample 2):
Strand = GAATACATCGACAAACATGTGCAACAGCTCTAATAG; value = 625 a.u.
Strand = GAACGCAACTGCAACCACATGCAAATGCTGGCATAG; value = 612 a.u.
Strand = GAAACAGGAGTTCTGCATGTGCGTAATTCGAAGTAG; value = 634 a.u.
Strand = CCTAACTACTATATTCATGTGGTATAGCTTCGTACA; value = 578 a.u.
Strand = CTAGTGGGTAAATGTCTCGTGCATTAAGACAGGTTC; value = 729 a.u.
Strand = GAAGAAGTAATCATTATCGTGGTGCACCAGCAGTAG; value = 490 a.u.
Strand = CTATGAGAACGTTATCACGCGGATTATTTAGTTTTC; value = 907 a.u.
Strand = CTAAGAAAAATGGCTGATGTAGTTGAAAAAGGTTTC; value = 517 a.u.
Strand = GAACATATACAGTGTAACGTGGGGACATTAATTTAG; value = 600 a.u.
